Assay results of several laboratories.
Every numbered part comes from another study and shows a few of its results, in no order.

Set 1
Target: RNA binding protein fox-1 homolog 2, RRM domain, GST-SBP tag (RBFOX2, Homo sapiens, UniProt O43251-10, residues 100-194)
Method: RNA Bind-n-Seq
Form: RNA
Medium: in vitro
Tested at: 365 nM
Setting: natural RNA segment, single round, ends assumed
Reference: no-protein control
Direction: higher = stronger binding
Shared flanks, not repeated: GGGAGUUCUACAGUCCGACGAUC … UGGAAUUCUCGGGUGCCAA
Target sequence (chain): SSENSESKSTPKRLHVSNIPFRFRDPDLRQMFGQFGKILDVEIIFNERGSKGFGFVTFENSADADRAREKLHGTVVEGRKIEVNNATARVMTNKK
Sequence | RBNS enrichment (R)
AUCUUGAAGUUACACAUAACUUCUUACUAGCCAGUAUGGCAAAAGUAGGCAUCUAAAGAAUAUAAAGCCUCAAAUCUUCCUUACUGUCUCUCUUGUCACAUGGAAUCUAC | 0.324
UCUGUUACAGGUCCAUGGCAAUUACUGUUUAUUUUUUCCUGGAAAAAUAUUUUUUUAUAAAAGGCUUUUUUUUUUUUUUAAAUACAUGAGAGGCAUUGGGCUAAGAAAGA | 0.965
UCCUGCUGACCCCUCCUGGACGGGCUGGAGCUGGGCUCCUGCCUUUGCUGCUAACACUGGAGGCGGUGUUCCUAACUGCAGUGUGCUGCUUACACCUCCCCGCGUGGGUA | 0.48
GUUGACCCCAUGUUUCAGAUCCUGGAACAAGCAUCCAAGAGUAACAGAACUUUCUGAGCUGGCAAAGGCUUAAACAUCUGCCUGGGUUCAGCAGGCAACCUGCCCGUCUG | 0.417
CUGUAAGUUGGUGUUGGUUAUGCAGAAAUGUGUAACAGAUCAAACGGUCCUCUCAAGUGUCUAUUAGAUAGGCAAUAAGAACUGCAGUGUAGCUGAGUAACAUCUUUUAG | 0.239
CUGCCGGUGGCUUCUCGCUGCGCAGCCUCCAGGGCCCGAGGUGAUCCCGGUGGUGGGAUCCACGCUGGGCCUAGGAUGGGACGUUUUUCUUCUUGGGCCCGGUCCACAGG | 0.185
ACCCCGGGGCUAUUGGAACCCUUCCAACACUUUUUCCUUUGUCAUAGACAAGUUUAUAUAUAACUUACCAAGAUGUUGGCUGUCCUGGUGUAUUGCCAGACAGCUCUCUU | 0.464
UGCAACUACUCAGGAAUUAUAAAGAUUUUCUGAAAUCUGAGAAGUGGAAUAAGGAAACCCAGUGGAGCUAUUACACUUUUAAAUGUUCUAGCCAAAACAAAUUGCCAGUA | 0.579
GUUCUCUGGGACUUUGUAAUUUUGAUUACUACUAUUGAUACAUGGUUAUGGUCAGAAGGCCUCUUCUCCCUUCCUCCCUCACUCCCUCUCCUCCUAGCUUUCCCCACAGA | 0.824
AUUAGUGAAUAUAGUUUGGAGUUUGGCUUCGUGUCCUGGGUUCUUCCCCGUCCCUUUUCUGUCAGCCCAUCACAGCCACCUGCUCUGCUCAGACAGCCAGGCACCAGAAG | 0.551
CCUGGUUUGUUUCUGACAAAGUUACAGUCCUGGGCCUGUAAUGAAUGUCGGCGGCGCUGGGGUUGCAGGGAAAAGACAAAUCCUCAAAGCGUGGACGUGUGUCCCCAUGG | 0.347
CCACCAGCCUUUCUUCCCCUUUGUGUGUGUGGUUCAAGUGUGCACUGGGAGGAGGCUGAGGCCUGUGAAGCCAAACAAUAUGCUCCUGCCUUGCACCUCCAAUAGGUUUU | 0.351

Set 2
Target: RING finger protein unkempt homolog, zinc fingers 1-6, GST-SBP tag (UNK, Homo sapiens, UniProt Q9C0B0, residues 30-357)
UniProt Q9C0B0, sequence (30-357, looked up): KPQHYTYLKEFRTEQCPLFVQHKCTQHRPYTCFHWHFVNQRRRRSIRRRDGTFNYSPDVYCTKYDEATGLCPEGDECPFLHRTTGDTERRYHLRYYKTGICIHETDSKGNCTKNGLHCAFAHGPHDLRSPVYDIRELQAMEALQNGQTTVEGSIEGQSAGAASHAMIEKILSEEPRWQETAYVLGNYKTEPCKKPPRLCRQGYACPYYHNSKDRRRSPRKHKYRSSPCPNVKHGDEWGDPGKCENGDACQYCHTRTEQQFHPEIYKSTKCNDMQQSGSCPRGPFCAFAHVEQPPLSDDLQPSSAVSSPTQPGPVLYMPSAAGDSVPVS
Method: RNA Bind-n-Seq
Form: RNA
Medium: in vitro
Tested at: not given
Setting: RNA with constant flanks, ends assumed
Reference: input RNA pool
Direction: higher = stronger binding
Shared flanks, not repeated: GGGAGUUCUACAGUCCGACGAUC … CAACAGAGGAUUGAGCAUCA
Sequence | bound/input enrichment [ratio]
GCUAGUCAGUCUGGGGCAACAUUCUUUAGCAUCUCUGCUUCAUCCUUAACUUCUAAAUGGGCCGGUGAGGGGGAGAAAAUGGUCCGUGCAUUGUUUGCUGUUGCAAGGUGUCAGCAACCA | 0.663
AGUUGAUAGUUUCACUCCCAAGCAAUGAAUUGCUUCUGUGUGUUUCCCUGUAGGACUCAACCGUAAAUGCUGUCUGUCUUACACAUUUAUAAGGACCCUGCAAGACGACGACAAAGGCCU | 0.315
AACUUACAGCCUCUUUCUGAAAGGCUGACACUUCUUGCCAUUUUCAUAUCAACUUUUCUCUUCCGUCUGACAUGGCAAUUUAAUCAAUUUAUGAUGCUGAUGCAAGCAUUAGUGCUGUUC | 0.901
UAUUUUGAUACUCUGUAUGUGUACAUAUAAUUUAACUGUAAUAUGUAUGUUGUAAUAUAUUACCGAUACUGUACUUGUCAUAUCAAGGGUUCUUGUUGUUAUUAAUUAAGCUUUAAAUGU | 0.247
AAGAUGGAGGGUAGCUAGGUAGCUAUGUUGGUCCGUGCUCGACCGGCCCAAUGUUGCCUUCCGUUUUGCCAUUCAGACCAGUGGGUCGGUGUGAUGAUUUAUUCCUGGCGCCCAUAUGAG | 0.161
AAUGAAGAAGAAAUACGUGCAAAUGUGGCCGUGGUUUCUGGUGCACCACUUCAGGGGUUGGCCGCAAGACCUUCCAGUAUAAACUAUAUGGUGGCUCCUGUAACUGGUAAUGAUGUUGGA | 0.448
UCACUUACUCGAAGUGGGAAGAGAAACAAGAUGUUAAGAAGUUCUUUGCCAUGGAGGGAAAACCGUUGGGAAGGAUAUAGUGGAAAUGUGAAGAUCAGAAAGCGUAAUGAUAUUCCAUGC | 0.225
CCACUUCGUAGUGUUUUGGAACAAACCAAGUUAAAGAAAGAAGAUAUUUAUGCAGUGGAGACCGUUGGUGGUGCUACACGAAUCCCUGCGGUAAAAGAGAAGAUCAGCAAAUUUUUCGGU | 0.417
GCCCGCCUUUUCCUUUCUCACUUUGGAUUUUUAUCCUUAGAGGCAUUAAAGGAACCUGCAAACCGUCGUCUACCUCCUCAUCUUAUUGCACUCGAUUCUACCAUACCUGGAUUUUUUGAU | 0.193
GAGAGCUUUAUUACCAGACAUGACCUUUCCGGAAAGGUUGUCAAUAUAGAUACAAACUCACUCCGAUCUUCCAUGAGGCCUGGCUUUGAAGACAUAAUCCGAAGAUGUAUCCAGAGGUUC | 0.199
GCUAUGCAAGCCUUAACUCUUCUGGGAGCAUGUGUAUCAAACUGUGGCAAAAUUUUUCACUCCGAAGUAUGUUCAAGAGACUUUGCUAGUGAAGUAAGCAAUGUAUUAAAUAAGGGUCAU | 0.298

Set 3
Target: Sal-like protein 4, full length isoform A (SALL4, Homo sapiens, UniProt Q9UJQ4, residues 1-1053)
UniProt Q9UJQ4, sequence (whole entry, looked up): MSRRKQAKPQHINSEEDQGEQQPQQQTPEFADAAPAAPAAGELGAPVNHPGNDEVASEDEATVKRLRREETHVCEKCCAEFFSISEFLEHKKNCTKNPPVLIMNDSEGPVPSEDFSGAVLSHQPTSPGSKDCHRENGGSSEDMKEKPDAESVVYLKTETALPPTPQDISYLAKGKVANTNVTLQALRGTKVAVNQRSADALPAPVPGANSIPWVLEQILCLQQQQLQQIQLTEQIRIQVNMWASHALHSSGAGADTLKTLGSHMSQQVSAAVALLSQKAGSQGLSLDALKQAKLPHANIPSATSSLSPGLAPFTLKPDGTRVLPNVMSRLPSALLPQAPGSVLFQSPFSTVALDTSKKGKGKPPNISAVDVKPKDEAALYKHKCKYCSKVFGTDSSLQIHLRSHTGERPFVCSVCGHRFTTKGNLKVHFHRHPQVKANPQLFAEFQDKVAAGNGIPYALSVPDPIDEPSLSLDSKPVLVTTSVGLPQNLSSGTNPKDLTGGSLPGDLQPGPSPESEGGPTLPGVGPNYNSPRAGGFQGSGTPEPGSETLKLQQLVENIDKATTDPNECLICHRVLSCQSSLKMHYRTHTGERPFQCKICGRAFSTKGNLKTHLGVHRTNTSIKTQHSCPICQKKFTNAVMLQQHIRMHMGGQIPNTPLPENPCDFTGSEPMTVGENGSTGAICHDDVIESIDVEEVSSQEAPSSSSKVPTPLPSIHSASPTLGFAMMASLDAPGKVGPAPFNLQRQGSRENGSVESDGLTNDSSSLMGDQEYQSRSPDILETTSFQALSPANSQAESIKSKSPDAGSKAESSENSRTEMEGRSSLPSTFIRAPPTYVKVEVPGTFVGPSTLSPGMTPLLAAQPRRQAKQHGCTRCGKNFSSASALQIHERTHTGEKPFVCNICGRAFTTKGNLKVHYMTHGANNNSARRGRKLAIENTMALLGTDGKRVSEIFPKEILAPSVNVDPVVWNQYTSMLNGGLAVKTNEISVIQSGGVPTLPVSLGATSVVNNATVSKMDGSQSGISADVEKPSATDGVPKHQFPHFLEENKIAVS
Method: universal PBM
Form: double-stranded DNA, one strand shown
Medium: in vitro
Tested at: 600 nM
Setting: 8-mer, flanks averaged, mean of replicates
Direction: higher = stronger binding
Sequence | E-score
CCATATGG | 0.0275
TAGCAGCA | -0.0587
AAAAAGCT | 0.198
GCCCGCCA | -0.298
CTCACGGC | -0.285
ACCTTAAT | 0.25
TGGCTCAA | -0.0636
CTTCTAAA | 0.0785
GTTTTGGA | 0.12
GCCACGAC | -0.106
CGTGTGCC | -0.214
ACACGACC | -0.164
CGGCATAG | -0.0334
CAGGAGCC | -0.356
AATGATAG | 0.219
GAATGGGA | -0.0648
CTATAGCA | 0.188
TACCATAA | 0.33
CTGTTACC | -0.0383
CATCATAA | 0.313
GCGCTAAC | -0.0143
AGAACGAA | 0.0958
CTTCGCAC | -0.0167
AATAGGCT | 0.0527
AGAGGCCG | -0.328

Set 4
Target: Interferon regulatory factor 5, full length, phosphomimetic (IRF5, Homo sapiens, UniProt Q13568-2, residues 1-514, S451D/S453D/S456D/S462D)
Method: protein-binding microarray
Form: double-stranded DNA, one strand shown
Medium: in vitro
Tested at: 940 nM top
Setting: 60-bp whole probe
Together with: salmon DNA 0.4 mg/ml
Reference: random background probes
Direction: higher = stronger binding
Shared flanks, not repeated: GCCTAGCAC … GTCTTGATTCGCTTGACGCTGCTG
Sequence | fitted relative affinity [z-score]
GACGGACTGCTTCTGCTGACGTGCTAG | -0.618
TTAGATTCCAATTTCGATTAGTGCTAG | 1.36
GACGAACTGAGTTTCGAGACGTGCTAG | 3.85
GACGTTTTCGGGTTTCGAGACGTGCTA | 2.86
TGAGGTCTCGGACTGGGTTAGTGCTAG | 0.189
TTAGAACTGAGACTGGGTTAGTGCTAG | -0.444
TGGGCATTTTTTTTATCAATGTGCTAG | 0.583
GACGGTTTAGACTTTCGGGACGTGCTA | 0.789
ATTTATTTACTCTCTACATGGGTGCTA | 1.44
TTAGGACTGCCTATCCTTTAGTGCTAG | -0.306
TCATTTTTTTTTTTTTTACTGTGCTAG | 1.35
TTAGAACTGAGTCACGATTAGTGCTAG | -0.405
GACTGACTGCTACTGCTGACGTGCTAG | -0.636
TCACCTCTCAACCATCCTACTGTGCTA | 1.37
GACGATTGCAGTCTCGAGACGTGCTAG | 0.605
TTAGTTTTCGGGTTTCGGTTAGTGCTA | 7.6
GACAGTTCCCTTTTCCTGACGTGCTAG | 1.4
TCACTCATGGCTTTGTAGATGTGCTAG | 0.261
GAGGGTCTCGGTATCGGGACGTGCTAG | 3.4
GACGAACTGGGTATCGGGACGTGCTAG | 0.842
TCACATTAAATTTTAATACTGTGCTAG | 0.241
TGTAGCTGGAGAAGTAAAACGTGCTAG | -0.289
ACCACTTTCCATTTCTGTTTGTGCTAG | 2
GACGGTCGCCTTTTCCTGACGTGCTAG | 0.244
TCACATCTCGGAGATCTCACTGTGCTA | 0.415

Excerpt of the above (set 4):
Sequence | fitted relative affinity [z-score]
TTAGAACTGAGACTGGGTTAGTGCTAG | -0.444
TGGGCATTTTTTTTATCAATGTGCTAG | 0.583
GACGGTTTAGACTTTCGGGACGTGCTA | 0.789
ATTTATTTACTCTCTACATGGGTGCTA | 1.44
TTAGGACTGCCTATCCTTTAGTGCTAG | -0.306
TCATTTTTTTTTTTTTTACTGTGCTAG | 1.35
TTAGAACTGAGTCACGATTAGTGCTAG | -0.405
GACTGACTGCTACTGCTGACGTGCTAG | -0.636
TCACCTCTCAACCATCCTACTGTGCTA | 1.37
GACGATTGCAGTCTCGAGACGTGCTAG | 0.605
TTAGTTTTCGGGTTTCGGTTAGTGCTA | 7.6
GACAGTTCCCTTTTCCTGACGTGCTAG | 1.4
